Experimental data collected from several papers.
Every numbered part comes from another study and shows a few of its results, in no order. Changes are numbered by the printed parent chain.

Study 1 — technique: DHFR PCA, deep sequencing; sample: yeast; with: (+)-ABA 710 µM; baseline: wild-type fitted maximum; reading: higher = stronger binding
Target: ABI1, truncated, D143A, DHFR fusion (Arabidopsis thaliana)
Setting: methotrexate growth selection, single substitutions
Starting sequence: PYL1, truncated, DHFR fusion (Arabidopsis thaliana); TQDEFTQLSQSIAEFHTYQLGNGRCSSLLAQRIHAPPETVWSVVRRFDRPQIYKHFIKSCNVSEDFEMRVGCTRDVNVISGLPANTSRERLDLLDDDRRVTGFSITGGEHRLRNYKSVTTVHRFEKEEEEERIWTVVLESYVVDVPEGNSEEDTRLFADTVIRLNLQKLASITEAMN
Change	relative binding score [%]
T120N	36
E152W	95.5
N77H	104
L29C	97.3
R111S	78.8
D95S	95.4
E67H	101
F5Q	106
K54C	-1.04
L164M	101
E127R	102
A13C	101
G71H	74.8
I172R	83.8
T119D	1.97
A84W	57.2
F15W	101
R163K	103
T6Y	94.1
E174H	88.2

Study 2 — target: CCNB1, cyclin fold, Cln2 fusion (human); technique: yeast growth competition, sequencing; sample: yeast; setting: strong parent motif; baseline: not given; reading: higher = stronger binding
Starting sequence: PKN2 docking peptide (human); VSAVQKLDFSDTM
Change	normalised enrichment score
VSAVQKLDFSDTK [M13K]	1.9
VSADQKLDFSDTM [V4D]	0.211
VSCVQKLDFSDTM [A3C]	2.86
VSAVQKIDFSDTM [L7I]	0.121
KSAVQKLDFSDTM [V1K]	2.21
VSAVQKLDLSDTM [F9L]	0.543
VSAVQPLDFSDTM [K6P]	-0.0896
VSAVQKLDQSDTM [F9Q]	0.223
VSAVQKLYFSDTM [D8Y]	1.59
VSAVQKLDFSDTA [M13A]	1.57
VSAVQKLDGSDTM [F9G]	0.0539
VSAVQKLDFSGTM [D11G]	1.71
YSAVQKLDFSDTM [V1Y]	2.55
VSAVQKLDFSETM [D11E]	1.89
VSAVQKLVFSDTM [D8V]	1.37
VSAFQKLDFSDTM [V4F]	0.607
VSAVQKLDFSDTP [M13P]	1.65
VSAVQFLDFSDTM [K6F]	0.74
VSAVQKLDFSDTY [M13Y]	1.91
VSAVQKLDWSDTM [F9W]	0.21
VSRVQKLDFSDTM [A3R]	0.546
VSAVQKLDFSDQM [T12Q]	1.41
VSNVQKLDFSDTM [A3N]	-0.204
VSAMQKLDFSDTM [V4M]	0.728
VSIVQKLDFSDTM [A3I]	2.98

Study 3 — target: CEP164, C-terminal peptide (human); technique: DHFR complementation, deep sequencing; sample: yeast; baseline: wild type; reading: higher = weaker binding
Setting: single substitutions, model-inferred values
Starting sequence: PDZK1, PDZ domain 2 (human); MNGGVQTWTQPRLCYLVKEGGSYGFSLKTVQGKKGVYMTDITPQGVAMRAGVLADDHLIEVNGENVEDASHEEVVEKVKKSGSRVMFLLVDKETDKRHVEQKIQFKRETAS; partner HNRVKVYRF
Change	binding free energy change [kcal/mol]
V75I	0.166
H57A	-0.245
V61I	0.321
D55A	0.502
A54V	0.0841
A47K	1.66
F25A	1.6
E64W	0.174
H57M	-0.455
Y23Q	1.3
P43S	0.272
Q6N	-0.0245
F25G	1.77
V61A	0.58
L27F	0.821
V36T	-0.435
R107N	-0.147
T7L	0.0498
Q10K	-0.0931
G32N	0.136
K106M	-0.129
V52C	0.0941
D55I	0.336

Study 4 — technique: RNA Bind-n-Seq; form: RNA; sample: in vitro; concentration: 200 nM; setting: whole 134-nt RNA, ends assumed; with: 150 mM KCl; baseline: input library; reading: higher = stronger binding
Target: Ras GTPase-activating protein-binding protein 1, full length (G3BP1, Homo sapiens, UniProt Q13283)
Chain of UniProt Q13283 (whole entry, looked up): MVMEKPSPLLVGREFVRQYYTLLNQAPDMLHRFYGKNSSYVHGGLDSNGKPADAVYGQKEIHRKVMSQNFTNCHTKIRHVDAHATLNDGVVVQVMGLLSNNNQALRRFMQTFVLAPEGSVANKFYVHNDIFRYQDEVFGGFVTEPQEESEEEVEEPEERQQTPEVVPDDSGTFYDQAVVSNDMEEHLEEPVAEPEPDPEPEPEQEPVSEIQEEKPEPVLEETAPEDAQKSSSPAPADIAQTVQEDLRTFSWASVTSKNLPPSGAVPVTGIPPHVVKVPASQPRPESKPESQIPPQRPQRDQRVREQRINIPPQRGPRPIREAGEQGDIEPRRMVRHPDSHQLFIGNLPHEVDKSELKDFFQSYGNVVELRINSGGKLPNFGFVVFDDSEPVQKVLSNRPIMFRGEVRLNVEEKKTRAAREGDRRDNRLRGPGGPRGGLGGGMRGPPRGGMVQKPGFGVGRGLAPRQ
Sequence	log2 enrichment
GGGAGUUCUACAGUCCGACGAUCAAGUCCUGUGCUACACAUCGUAUGUACCGAAUCGGAAAAAGGGAAAAAGGAAAAAGGAAAGUAUUAUGUUACGCCGUUCGGAUCUGCACUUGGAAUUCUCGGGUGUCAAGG	-1.02
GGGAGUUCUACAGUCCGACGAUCCAGAGACAACACGCACCCACACAGACACAGAGGGAAGGGGUUGGGAUGGGGACAGGGUGCACAGCAGGGCGGGGUAGGACCCCAGCCCCUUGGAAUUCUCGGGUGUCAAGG	1.85
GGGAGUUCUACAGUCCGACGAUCAAGUCCUGUGCUACACAUCGUAUGUACCGAAUCGGUUUGGAAAAAGGAAAAAAAGGAAAGUAUUAUGUUACGCCGUUCGGAUCUGCACUUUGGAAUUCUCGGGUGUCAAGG	-0.971
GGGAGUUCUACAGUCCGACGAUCUGUGCUACACAUCGUAUGUACCGAAUCGGAAAAAAAGGGGAAAAAAAGGGGAAAAAAAGGGGAAAGUAUUAUGUUACGCCGUUCGGAUCUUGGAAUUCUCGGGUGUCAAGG	-0.52
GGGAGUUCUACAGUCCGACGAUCUAACUUUAGAGGAGGAUCUGAUGAAUAUGGCAGUGGACGUGGAUUUGGGGAUGGCUAUAAUGGGUAUGGAGGAGGACCUGGAGGUGGCAAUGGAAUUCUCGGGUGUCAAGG	0.396
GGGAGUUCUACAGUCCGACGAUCUGGCCCUGGUGGCAUGCGGGGAGGAAGAGGUGGCCUCAUGGAUCGUGGUGGUCCCGGUGGAAUGUCCAGAGGUGGCCGUGGUGGAGACAGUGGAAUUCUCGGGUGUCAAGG	-0.0791
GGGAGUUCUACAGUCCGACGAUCGCAGGAAGUAAAAACAAAUGGAAAUGCUUCGGAUAGUGGCAAAGGUGGGGGUUGCUAAGGAAAGGGUGGGAUGGGAGUGGGUAAAGAGUUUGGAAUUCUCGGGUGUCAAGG	1.12
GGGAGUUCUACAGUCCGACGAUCUAACUUUAGAGGAGGAUCUGAUGGAUAUGGCAGUGGACGUUGAUUUGGGGAUGGCUAUAAUGGGUAUGGAGGAGGACCUGGAGGUGGCAAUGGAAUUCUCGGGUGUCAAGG	0.387
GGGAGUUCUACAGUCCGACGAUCCACAGACAACACGCACCCACACAGACACAGAGGGAAGGGGUUGGGAUGGGGACAGGGUGCACAGCAGGGCGGGGUAGGACCCCAGCGCCUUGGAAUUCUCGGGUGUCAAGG	1.9
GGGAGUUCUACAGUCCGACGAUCCCUCAAGUCCUGUGCUACACAUCGUAUGUACCGAAUCGGGGUGGUGGGUGGGAAAGUAUUAUGUUACGCCGUUCGGAUCUGCACUUCCAGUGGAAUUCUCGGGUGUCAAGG	1.14

For quick reference, copied from above (study 1):
Change	relative binding score [%]
R111S	78.8
D95S	95.4
E67H	101
F5Q	106
K54C	-1.04
L164M	101
E127R	102
A13C	101
G71H	74.8
I172R	83.8
T119D	1.97
A84W	57.2
